Measured values gathered from unrelated publications.
Numbered parts are unrelated; each lists some results of a single study.
Chain of UniProt O14578 (whole entry, looked up): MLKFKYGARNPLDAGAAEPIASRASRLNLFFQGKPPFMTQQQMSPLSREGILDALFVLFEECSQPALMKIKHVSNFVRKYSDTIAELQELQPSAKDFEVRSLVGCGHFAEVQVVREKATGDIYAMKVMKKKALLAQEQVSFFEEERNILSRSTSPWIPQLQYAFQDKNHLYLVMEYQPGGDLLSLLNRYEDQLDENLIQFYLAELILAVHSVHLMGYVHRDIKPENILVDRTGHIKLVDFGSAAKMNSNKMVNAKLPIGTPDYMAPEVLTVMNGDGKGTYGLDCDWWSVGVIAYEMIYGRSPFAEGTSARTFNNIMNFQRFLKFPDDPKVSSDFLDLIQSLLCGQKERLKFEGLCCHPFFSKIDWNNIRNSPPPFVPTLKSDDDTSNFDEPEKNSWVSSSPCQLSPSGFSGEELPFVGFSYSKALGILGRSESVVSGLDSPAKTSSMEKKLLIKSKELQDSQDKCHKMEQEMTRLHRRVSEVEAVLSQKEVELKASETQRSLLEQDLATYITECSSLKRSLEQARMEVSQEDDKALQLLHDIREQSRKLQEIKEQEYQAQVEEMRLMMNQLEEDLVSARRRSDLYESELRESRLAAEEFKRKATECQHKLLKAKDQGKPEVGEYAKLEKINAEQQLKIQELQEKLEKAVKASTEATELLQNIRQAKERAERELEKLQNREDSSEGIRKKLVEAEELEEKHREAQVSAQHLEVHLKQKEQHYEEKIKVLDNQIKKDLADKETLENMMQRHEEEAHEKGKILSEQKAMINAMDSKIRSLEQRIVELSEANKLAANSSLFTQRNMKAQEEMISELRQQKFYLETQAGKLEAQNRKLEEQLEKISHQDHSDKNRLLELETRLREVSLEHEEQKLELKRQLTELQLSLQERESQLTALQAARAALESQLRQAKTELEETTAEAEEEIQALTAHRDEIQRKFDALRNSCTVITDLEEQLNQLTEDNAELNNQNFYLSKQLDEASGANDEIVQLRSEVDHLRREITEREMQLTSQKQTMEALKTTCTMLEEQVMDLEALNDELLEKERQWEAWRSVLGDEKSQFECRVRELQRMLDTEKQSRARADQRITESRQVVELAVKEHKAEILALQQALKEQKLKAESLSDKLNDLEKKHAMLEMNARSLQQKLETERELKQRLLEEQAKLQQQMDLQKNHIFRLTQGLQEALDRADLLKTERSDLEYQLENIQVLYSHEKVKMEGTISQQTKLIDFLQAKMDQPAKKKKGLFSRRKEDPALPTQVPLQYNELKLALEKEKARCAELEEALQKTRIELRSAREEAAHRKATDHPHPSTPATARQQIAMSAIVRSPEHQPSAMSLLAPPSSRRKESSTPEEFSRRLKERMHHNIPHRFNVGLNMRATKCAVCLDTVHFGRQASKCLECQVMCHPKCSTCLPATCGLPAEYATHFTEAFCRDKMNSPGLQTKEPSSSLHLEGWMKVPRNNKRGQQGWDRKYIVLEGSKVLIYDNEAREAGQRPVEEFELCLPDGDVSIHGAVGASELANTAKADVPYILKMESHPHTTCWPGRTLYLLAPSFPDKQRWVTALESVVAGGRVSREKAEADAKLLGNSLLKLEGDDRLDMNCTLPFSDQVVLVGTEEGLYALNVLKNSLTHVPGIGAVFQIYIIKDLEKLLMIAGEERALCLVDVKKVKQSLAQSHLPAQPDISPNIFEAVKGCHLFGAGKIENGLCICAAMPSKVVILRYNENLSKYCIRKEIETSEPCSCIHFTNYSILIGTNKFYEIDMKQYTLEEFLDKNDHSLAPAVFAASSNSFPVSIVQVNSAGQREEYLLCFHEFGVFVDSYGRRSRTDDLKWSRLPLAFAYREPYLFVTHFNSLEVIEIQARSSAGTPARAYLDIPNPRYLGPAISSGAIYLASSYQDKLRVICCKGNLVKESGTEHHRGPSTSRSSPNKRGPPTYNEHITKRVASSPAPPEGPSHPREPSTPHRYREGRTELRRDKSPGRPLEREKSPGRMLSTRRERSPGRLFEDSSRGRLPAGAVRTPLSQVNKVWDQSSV
Chain of UniProt P53778 (whole entry, looked up): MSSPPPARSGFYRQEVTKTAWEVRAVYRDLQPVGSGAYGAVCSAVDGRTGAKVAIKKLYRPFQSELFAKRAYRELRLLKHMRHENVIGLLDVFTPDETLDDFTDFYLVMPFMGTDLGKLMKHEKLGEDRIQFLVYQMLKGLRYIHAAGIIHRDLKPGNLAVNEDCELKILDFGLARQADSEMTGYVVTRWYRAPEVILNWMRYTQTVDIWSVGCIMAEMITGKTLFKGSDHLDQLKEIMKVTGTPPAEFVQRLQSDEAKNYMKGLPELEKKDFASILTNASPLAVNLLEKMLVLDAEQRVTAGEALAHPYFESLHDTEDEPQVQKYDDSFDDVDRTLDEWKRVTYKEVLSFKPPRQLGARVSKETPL
Chain of UniProt O00329 (whole entry, looked up): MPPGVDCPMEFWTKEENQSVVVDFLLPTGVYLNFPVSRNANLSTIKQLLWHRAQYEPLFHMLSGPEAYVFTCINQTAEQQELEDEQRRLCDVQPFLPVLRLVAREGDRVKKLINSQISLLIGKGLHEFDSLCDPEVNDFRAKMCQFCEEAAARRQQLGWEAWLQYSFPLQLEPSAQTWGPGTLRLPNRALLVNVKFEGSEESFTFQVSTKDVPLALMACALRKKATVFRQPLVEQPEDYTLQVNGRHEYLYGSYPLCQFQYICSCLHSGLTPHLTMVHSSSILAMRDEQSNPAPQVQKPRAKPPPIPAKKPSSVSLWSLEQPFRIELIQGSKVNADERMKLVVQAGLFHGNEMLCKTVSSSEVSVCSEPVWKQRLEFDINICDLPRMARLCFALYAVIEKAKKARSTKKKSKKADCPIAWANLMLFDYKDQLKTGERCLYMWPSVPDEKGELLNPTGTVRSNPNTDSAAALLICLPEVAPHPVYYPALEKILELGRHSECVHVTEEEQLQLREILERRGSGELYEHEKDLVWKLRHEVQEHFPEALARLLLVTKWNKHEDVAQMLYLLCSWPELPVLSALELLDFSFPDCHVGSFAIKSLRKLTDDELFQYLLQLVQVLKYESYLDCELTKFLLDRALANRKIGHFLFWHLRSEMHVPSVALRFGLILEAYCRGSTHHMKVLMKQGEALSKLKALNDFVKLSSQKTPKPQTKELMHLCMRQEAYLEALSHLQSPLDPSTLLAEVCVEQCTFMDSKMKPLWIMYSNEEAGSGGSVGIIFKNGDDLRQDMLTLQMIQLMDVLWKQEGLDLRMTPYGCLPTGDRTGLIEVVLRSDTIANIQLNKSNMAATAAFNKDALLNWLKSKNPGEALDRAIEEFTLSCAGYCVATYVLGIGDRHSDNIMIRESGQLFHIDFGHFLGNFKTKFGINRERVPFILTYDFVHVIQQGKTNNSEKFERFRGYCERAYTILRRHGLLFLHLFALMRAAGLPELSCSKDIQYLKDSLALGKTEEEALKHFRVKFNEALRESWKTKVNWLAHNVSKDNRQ
Chain of UniProt Q16816 (whole entry, looked up): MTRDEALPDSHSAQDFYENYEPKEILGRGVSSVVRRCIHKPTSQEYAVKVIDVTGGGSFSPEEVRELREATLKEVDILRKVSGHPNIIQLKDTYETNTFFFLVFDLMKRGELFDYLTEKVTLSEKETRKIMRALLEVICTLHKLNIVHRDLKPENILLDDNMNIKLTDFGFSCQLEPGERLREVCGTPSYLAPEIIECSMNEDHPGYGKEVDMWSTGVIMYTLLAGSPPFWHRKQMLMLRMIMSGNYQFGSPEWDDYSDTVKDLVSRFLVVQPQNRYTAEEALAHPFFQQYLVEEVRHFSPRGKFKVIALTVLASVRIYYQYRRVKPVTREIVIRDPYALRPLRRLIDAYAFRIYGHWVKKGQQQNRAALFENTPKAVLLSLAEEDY

Series 1 — method: competition with immobilised ligand; concentration: 1 µM
Structure (SMILES): O=C(N1CCS(=O)(=O)CC1)N1C[C@H](c2ccc(OC(F)(F)F)cc2)C[C@H](c2nc(C3CC3)no2)C1
It gave 100% for remaining binding (MAP2K6 (Homo sapiens, UniProt P52564); cell-free assay).
It gave 85% for remaining binding (HIPK4 (Homo sapiens, UniProt Q8NE63); cell-free assay).
It gave 97% for remaining binding (PIK3CD (Homo sapiens, UniProt O00329); cell-free assay).
For FLT3 (Homo sapiens, UniProt P36888, N841I); cell-free assay: remaining binding read 100%.
MAPK12 (Homo sapiens, UniProt P53778); cell-free assay — remaining binding: 100%.
The remaining binding was 100% (PDGFRB (Homo sapiens, UniProt P09619); cell-free assay).
For STK11 (Homo sapiens, UniProt Q15831); cell-free assay: remaining binding read 92%.
It gave 100% for remaining binding (FLT3 (Homo sapiens, UniProt P36888, D835V/ITD); cell-free assay).
It gave 94% for remaining binding (TBK1 (Homo sapiens, UniProt Q9UHD2); cell-free assay).
For Tyrosine-protein kinase ABL1, phosphorylated (ABL1, Homo sapiens, UniProt P00519, Y253F); cell-free assay: remaining binding read 100%.
The remaining binding was 89% (Tyrosine-protein kinase ABL1, non-phosphorylated (ABL1, Homo sapiens, UniProt P00519, F317L); cell-free assay).
LTK (Homo sapiens, UniProt P29376); cell-free assay — remaining binding: 100%.
The remaining binding was 100% (CIT (Homo sapiens, UniProt O14578); cell-free assay).
TESK1 (Homo sapiens, UniProt Q15569); cell-free assay — remaining binding: 100%.
It gave 98% for remaining binding (MAP3K13 (Homo sapiens, UniProt O43283); cell-free assay).
For MKNK1 (Homo sapiens, UniProt Q9BUB5); cell-free assay: remaining binding read 100%.
For LRRK2 (Homo sapiens, UniProt Q5S007); cell-free assay: remaining binding read 100%.
The remaining binding was 100% (FGFR3 (Homo sapiens, UniProt P22607); cell-free assay).
AKT2 (Homo sapiens, UniProt P31751); cell-free assay — remaining binding: 90%.
WNK4 (Homo sapiens, UniProt Q96J92); cell-free assay — remaining binding: 100%.
The remaining binding was 96% (EPHA7 (Homo sapiens, UniProt Q15375); cell-free assay).
The remaining binding was 100% (WEE2 (Homo sapiens, UniProt P0C1S8); cell-free assay).
PHKG1 (Homo sapiens, UniProt Q16816); cell-free assay — remaining binding: 94%.
The remaining binding was 100% (STK38L (Homo sapiens, UniProt Q9Y2H1); binding).

Series 2 — observed: enzyme activity; action: inhibitor; concentration: 0.5 µM; baseline: control
Target: SRSF protein kinase 3 (SRPK3, Homo sapiens, UniProt Q9UPE1)
Chain of UniProt Q9UPE1 (whole entry, looked up): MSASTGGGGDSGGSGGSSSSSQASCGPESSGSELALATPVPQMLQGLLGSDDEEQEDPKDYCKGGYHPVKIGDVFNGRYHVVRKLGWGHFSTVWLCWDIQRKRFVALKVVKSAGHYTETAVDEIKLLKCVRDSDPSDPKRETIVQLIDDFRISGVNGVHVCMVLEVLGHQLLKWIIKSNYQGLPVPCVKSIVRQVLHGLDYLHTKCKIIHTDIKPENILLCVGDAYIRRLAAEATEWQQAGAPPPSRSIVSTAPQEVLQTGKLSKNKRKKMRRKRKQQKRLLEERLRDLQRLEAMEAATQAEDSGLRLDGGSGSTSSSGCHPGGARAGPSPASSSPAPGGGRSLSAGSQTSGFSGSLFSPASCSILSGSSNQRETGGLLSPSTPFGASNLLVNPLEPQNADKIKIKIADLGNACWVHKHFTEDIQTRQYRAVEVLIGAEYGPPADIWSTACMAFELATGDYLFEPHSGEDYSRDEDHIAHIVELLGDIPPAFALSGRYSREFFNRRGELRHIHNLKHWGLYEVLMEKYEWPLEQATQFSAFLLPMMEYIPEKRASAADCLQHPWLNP
For `Cc1cc2ncc(-c3ccccc3)nc2cc1C`, the remaining activity was 91.4%.
With `O=c1cc(-c2cccc3c2Sc2ccccc2S3)oc(N2CCOCC2)c1` the remaining activity was 99.6%.
The remaining activity of `CCN(CC)CCNC(=O)c1c(C)[nH]c(/C=C2\C(=O)Nc3ccc(Cl)cc32)c1C` is reported as 92.8%.
`CCN(CC)C(=O)c1ccc(Nc2nc(OCC3CCCCC3)c3[nH]cnc3n2)cc1` has a remaining activity of 68.1%.
`CN(C)C[C@H]1CCn2c(c(C3=C(c4cn(C)c5ccccc45)C(=O)NC3=O)c3ccccc32)C1` has a remaining activity of 100%.
`COc1cc2c(cc1OC)-c1[nH]nc(Nc3cccc(F)c3)c1C2` has a remaining activity of 99.7%.
With `Cc1cn(-c2cc(NC(=O)c3ccc(C)c(Nc4nccc(-c5cccnc5)n4)c3)cc(C(F)(F)F)c2)cn1` the remaining activity was 101%.
With `N#C/C(=C\c1ccc(O)c(O)c1)C(=O)NCc1ccccc1` the remaining activity was 93.9%.
`CCOc1nc(NC(=O)Cc2cc(OC)ccc2OC)cc(N)c1C#N` has a remaining activity of 92.3%.
The remaining activity of `COc1cc2ncnc(Nc3cccc(Cl)c3)c2cc1OC` is reported as 90.1%.
With `Cn1nc2c3c(cccc31)C(=O)c1ccccc1-2` the remaining activity was 96.3%.
For `O=C1Nc2ccc(Cl)cc2C1=Cc1cc(Cl)c(O)c(Cl)c1`, the remaining activity was 88.3%.
`O=C1C(Cl)=C(N2C(=O)CCC2=O)C(=O)c2ccccc21` gave a remaining activity of 93.6%.
With `COc1cc2ncnc(Nc3ccc(O)c(Br)c3)c2cc1OC` the remaining activity was 92.4%.
The remaining activity of `c1ccc(-c2cnc(Nc3ccc(OCCN4CCCC4)cc3)s2)cc1` is reported as 98.2%.
For `O=C(Nc1cccc(Nc2nccc(Nc3cccc(C(F)(F)F)c3)n2)c1)C1CC1`, the remaining activity was 101%.
With `N#Cc1c(NC(=O)c2cccc3ccccc23)sc2c1CCCC2` the remaining activity was 95.7%.
`c1ccc(-c2[nH]ncc2-c2ccnc3ccccc23)nc1` has a remaining activity of 88.9%.
For `Nc1cccc(-c2cc3c(Oc4cccc(O)c4)ncnc3[nH]2)c1`, the remaining activity was 101%.
With `Cc1nc2cc3nc(-c4cccs4)cnc3cc2n1C` the remaining activity was 96.6%.
The remaining activity of `O=C1c2ccccc2-c2n[nH]c3cccc1c23` is reported as 92.5%.
`CCN(CC)CCNC(=O)c1c(C)[nH]c(/C=C2\C(=O)Nc3ccc(F)cc32)c1C` gave a remaining activity of 102%.
`C[C@@H]1CCN(C(=O)CC#N)C[C@@H]1N(C)c1ncnc2[nH]ccc12` gave a remaining activity of 103%.

Series 3 — cell line: Huh-7; concentration: 10 µM; time: 24 h
With `CNCCCN1c2ccccc2CCc2ccccc21` the viability was 90.4%.
The viability of `Cc1cccc(Nc2ccccc2C(=O)O)c1C` is reported as 101%.
The viability of `CN(C)CCCN1c2ccccc2Sc2ccccc21` is reported as 101%.
The viability of `C#C[C@]1(O)CC[C@H]2[C@@H]3CCC4=CC(=O)CC[C@@H]4[C@H]3CC[C@@]21C` is reported as 83.8%.
`CO[C@H]1C[C@H](O[C@H]2[C@H](C)[C@@H](O[C@@H]3O[C@H](C)C[C@H](N(C)C)[C@H]3O)[C@@H](C)C[C@@]3(CO3)C(=O)[C@H](C)[C@@H](O)[C@@H](C)[C@@H](C)OC(=O)[C@@H]2C)O[C@@H](C)[C@@H]1O` has a viability of 101%.
`CNS(=O)(=O)Cc1ccc2[nH]cc(CCN(C)C)c2c1` has a viability of 101%.
`OC[C@@H](O)[C@@H](O)[C@H](O)[C@H](O)CO` gave a viability of 98.5%.
`Nc1ccc(C(=O)O)cc1` gave a viability of 100%.

Series 4 — observed: enzyme activity; action: inhibitor; concentration: 10 µM
Target: Calcium/calmodulin-dependent protein kinase type II subunit alpha (CAMK2A, Homo sapiens, UniProt Q9UQM7)
Chain of UniProt Q9UQM7 (whole entry, looked up): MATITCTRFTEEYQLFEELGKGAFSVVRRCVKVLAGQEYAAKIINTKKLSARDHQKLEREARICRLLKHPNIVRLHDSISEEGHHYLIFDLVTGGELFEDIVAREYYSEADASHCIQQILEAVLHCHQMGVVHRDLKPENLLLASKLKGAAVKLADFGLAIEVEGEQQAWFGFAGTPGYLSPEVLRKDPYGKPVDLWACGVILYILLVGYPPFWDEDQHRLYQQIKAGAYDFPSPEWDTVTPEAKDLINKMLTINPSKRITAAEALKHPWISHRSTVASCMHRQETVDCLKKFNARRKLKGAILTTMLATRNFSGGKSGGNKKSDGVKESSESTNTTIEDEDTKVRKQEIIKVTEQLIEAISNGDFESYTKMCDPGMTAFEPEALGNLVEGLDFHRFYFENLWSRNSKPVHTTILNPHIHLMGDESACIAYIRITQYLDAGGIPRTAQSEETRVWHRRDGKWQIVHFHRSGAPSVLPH
`CC(=O)O[C@@H](C[C@@H](C)C1=C2C[C@H](O)[C@H]3[C@@]4(C)CCC(=O)C(C)(C)[C@@H]4CC[C@]3(C)[C@@]2(C)CC1)[C@H]1OC1(C)C` has an inhibition of 7%.
`CC(C(=O)O)c1ccc2c(c1)[nH]c1ccc(Cl)cc12` (stereo not drawn) gave an inhibition of -2%.
`c1ccc2c(c1)CCCC2C1=NCCN1` (stereo not drawn) gave an inhibition of -9%.
For `O=C(O)CCCCCCCCCCCCCCCCC(=O)O`, the inhibition was -16%.
`NCC(=O)CCC(=O)O` has an inhibition of 2%.
`c1cc2c(c3c1CC1c4cc5c(cc4CCN1C3)OCO5)OCO2` (racemic) gave an inhibition of -25%.
`Cc1ccccc1C(=O)Nc1ccc(C(=O)N2CCCC(O)c3cc(Cl)ccc32)c(C)c1` (stereo not drawn) has an inhibition of 1%.
With `COc1c(O)cc(O)c2c(=O)cc(-c3ccccc3)oc12` the inhibition was -42%.

Excerpt of the above (series 4):
`CC(=O)O[C@@H](C[C@@H](C)C1=C2C[C@H](O)[C@H]3[C@@]4(C)CCC(=O)C(C)(C)[C@@H]4CC[C@]3(C)[C@@]2(C)CC1)[C@H]1OC1(C)C` has an inhibition of 7%.
`CC(C(=O)O)c1ccc2c(c1)[nH]c1ccc(Cl)cc12` (stereo not drawn) gave an inhibition of -2%.
`c1ccc2c(c1)CCCC2C1=NCCN1` (stereo not drawn) gave an inhibition of -9%.
For `O=C(O)CCCCCCCCCCCCCCCCC(=O)O`, the inhibition was -16%.
`NCC(=O)CCC(=O)O` has an inhibition of 2%.
`c1cc2c(c3c1CC1c4cc5c(cc4CCN1C3)OCO5)OCO2` (racemic) gave an inhibition of -25%.
`Cc1ccccc1C(=O)Nc1ccc(C(=O)N2CCCC(O)c3cc(Cl)ccc32)c(C)c1` (stereo not drawn) has an inhibition of 1%.
With `COc1c(O)cc(O)c2c(=O)cc(-c3ccccc3)oc12` the inhibition was -42%.
